# Results collected from several papers.
# Numbered parts are unrelated; each lists some results of a single study. Changes are numbered by the printed parent chain.
# Chain of UniProt P57059 (whole entry, looked up): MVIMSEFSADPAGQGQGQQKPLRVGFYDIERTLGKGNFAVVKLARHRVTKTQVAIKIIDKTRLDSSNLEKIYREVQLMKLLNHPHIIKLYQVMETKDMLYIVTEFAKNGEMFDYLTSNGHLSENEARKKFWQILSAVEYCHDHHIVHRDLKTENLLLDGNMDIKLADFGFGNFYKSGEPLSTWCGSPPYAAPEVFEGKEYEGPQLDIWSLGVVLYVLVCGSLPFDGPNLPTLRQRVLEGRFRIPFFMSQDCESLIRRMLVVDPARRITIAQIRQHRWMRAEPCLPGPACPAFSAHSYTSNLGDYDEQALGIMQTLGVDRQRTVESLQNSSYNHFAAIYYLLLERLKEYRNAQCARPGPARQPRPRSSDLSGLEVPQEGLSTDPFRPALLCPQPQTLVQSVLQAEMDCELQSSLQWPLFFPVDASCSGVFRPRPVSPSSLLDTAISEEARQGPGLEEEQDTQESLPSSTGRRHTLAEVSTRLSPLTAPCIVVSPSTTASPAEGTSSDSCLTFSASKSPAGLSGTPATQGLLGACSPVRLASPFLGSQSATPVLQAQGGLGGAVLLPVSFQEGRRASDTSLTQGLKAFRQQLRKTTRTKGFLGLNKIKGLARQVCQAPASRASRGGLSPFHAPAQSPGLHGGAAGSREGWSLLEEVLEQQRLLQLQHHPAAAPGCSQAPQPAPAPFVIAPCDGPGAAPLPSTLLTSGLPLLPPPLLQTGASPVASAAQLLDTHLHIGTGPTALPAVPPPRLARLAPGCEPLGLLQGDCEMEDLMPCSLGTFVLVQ
# Chain of UniProt Q9NRP7 (whole entry, looked up): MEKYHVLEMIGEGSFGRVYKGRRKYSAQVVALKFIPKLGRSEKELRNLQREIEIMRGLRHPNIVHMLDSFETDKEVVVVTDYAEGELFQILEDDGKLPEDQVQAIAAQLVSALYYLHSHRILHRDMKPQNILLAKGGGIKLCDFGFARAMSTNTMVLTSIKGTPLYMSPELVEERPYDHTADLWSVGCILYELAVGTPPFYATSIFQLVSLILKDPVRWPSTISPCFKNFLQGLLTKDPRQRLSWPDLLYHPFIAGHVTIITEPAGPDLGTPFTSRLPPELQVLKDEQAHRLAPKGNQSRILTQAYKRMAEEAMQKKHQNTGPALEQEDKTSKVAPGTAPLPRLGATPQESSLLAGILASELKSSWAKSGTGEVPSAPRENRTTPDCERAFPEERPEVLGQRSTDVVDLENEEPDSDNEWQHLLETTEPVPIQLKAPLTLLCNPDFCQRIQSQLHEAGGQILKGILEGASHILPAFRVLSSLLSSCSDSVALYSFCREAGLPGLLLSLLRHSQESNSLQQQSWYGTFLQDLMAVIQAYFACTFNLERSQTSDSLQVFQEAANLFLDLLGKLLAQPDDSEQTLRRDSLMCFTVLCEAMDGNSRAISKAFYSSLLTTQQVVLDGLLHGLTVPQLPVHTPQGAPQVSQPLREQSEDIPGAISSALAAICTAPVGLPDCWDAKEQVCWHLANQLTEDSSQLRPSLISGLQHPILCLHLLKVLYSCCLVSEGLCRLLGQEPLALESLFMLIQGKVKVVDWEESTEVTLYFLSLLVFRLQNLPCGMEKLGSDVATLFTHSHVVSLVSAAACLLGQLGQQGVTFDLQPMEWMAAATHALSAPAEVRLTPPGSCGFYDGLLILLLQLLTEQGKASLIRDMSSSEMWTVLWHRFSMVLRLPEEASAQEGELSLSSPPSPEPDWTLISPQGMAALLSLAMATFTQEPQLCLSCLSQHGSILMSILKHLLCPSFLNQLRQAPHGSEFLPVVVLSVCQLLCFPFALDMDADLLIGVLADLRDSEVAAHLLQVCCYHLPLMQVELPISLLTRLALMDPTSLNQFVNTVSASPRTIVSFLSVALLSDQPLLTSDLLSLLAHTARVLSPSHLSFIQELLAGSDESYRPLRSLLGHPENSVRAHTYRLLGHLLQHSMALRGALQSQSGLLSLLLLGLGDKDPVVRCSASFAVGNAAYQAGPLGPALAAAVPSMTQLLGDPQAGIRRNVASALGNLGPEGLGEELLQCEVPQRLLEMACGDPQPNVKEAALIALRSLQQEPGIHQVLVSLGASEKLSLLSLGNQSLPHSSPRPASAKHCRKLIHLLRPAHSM
# Chain of UniProt Q13177 (whole entry, looked up): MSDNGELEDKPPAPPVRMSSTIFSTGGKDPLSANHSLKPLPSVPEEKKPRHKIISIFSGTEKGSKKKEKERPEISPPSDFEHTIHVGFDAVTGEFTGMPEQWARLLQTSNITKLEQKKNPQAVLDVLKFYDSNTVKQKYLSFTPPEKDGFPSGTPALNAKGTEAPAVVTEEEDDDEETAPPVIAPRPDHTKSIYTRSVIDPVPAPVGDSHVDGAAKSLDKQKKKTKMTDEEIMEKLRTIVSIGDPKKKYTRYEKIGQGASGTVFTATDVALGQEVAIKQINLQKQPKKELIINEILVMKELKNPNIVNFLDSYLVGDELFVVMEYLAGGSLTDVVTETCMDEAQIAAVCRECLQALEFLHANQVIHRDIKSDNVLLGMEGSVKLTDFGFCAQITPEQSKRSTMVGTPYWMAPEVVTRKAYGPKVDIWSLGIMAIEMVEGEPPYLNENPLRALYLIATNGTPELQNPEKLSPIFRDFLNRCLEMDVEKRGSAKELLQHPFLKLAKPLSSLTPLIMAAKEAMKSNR
# Chain of UniProt O95747 (whole entry, looked up): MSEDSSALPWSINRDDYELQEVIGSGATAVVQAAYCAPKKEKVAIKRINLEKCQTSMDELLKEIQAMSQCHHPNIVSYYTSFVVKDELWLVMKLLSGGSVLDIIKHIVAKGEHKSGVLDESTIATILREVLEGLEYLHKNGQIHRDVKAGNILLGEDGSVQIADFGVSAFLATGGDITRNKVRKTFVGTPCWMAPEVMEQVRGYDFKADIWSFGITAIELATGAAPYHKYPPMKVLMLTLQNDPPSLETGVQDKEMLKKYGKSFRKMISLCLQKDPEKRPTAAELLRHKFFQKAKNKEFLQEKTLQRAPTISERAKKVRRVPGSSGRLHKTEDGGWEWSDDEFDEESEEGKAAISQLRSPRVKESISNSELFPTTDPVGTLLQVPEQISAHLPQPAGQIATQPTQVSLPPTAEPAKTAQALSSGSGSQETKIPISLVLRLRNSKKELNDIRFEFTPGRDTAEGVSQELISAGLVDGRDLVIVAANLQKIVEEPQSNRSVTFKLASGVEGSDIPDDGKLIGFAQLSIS
# Chain of UniProt P21709 (whole entry, looked up): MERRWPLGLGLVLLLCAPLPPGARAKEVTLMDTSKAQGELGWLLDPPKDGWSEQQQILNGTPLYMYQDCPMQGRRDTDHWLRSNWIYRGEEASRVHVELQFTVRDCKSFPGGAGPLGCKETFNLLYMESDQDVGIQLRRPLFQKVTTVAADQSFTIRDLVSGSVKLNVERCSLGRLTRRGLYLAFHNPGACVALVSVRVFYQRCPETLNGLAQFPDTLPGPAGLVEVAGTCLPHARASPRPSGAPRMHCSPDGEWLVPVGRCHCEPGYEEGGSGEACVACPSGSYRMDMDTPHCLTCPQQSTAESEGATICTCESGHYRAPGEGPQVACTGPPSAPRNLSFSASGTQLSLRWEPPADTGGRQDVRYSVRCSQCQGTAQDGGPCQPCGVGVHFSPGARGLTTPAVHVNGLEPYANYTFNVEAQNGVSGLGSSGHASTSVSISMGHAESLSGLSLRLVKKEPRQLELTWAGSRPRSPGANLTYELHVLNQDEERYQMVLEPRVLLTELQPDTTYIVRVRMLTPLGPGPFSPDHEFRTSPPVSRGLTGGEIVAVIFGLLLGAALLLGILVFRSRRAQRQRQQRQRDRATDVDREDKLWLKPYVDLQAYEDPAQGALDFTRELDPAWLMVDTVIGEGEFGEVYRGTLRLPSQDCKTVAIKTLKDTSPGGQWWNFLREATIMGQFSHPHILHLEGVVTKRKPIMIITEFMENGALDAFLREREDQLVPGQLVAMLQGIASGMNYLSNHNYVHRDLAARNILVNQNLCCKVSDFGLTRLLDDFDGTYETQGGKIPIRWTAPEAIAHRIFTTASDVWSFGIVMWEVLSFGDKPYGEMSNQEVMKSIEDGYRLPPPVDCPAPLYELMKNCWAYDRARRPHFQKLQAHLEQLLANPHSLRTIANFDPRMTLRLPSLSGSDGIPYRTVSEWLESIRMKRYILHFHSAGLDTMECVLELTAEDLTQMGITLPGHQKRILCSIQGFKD
# Chain of UniProt O00238 (whole entry, looked up): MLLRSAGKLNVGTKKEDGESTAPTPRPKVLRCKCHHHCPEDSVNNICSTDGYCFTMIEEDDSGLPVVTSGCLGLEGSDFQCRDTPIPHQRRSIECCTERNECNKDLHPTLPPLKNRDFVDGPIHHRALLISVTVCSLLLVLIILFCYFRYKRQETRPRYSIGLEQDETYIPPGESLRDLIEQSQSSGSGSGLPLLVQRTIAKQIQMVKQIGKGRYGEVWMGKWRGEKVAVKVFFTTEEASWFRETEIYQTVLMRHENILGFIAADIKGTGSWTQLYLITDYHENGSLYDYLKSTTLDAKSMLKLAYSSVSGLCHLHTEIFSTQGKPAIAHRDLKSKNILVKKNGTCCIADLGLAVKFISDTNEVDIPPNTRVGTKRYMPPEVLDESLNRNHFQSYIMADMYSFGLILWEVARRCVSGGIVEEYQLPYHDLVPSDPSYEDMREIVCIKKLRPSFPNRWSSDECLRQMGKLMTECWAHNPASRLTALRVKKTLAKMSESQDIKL

# Set 1
# Structure (SMILES): Cn1cncc1[C@](O)(COc1ccc(C#N)cc1-c1ccc(OC(F)(F)F)cc1)c1ccc(C#N)cc1
# Concentration: 1 µM
target,test,remaining binding [%]
"Myosin-IIIa (MYO3A, Homo sapiens, UniProt Q8NEV4)","binding, competition with immobilised ligand",100
"EIF2AK2 (Homo sapiens, UniProt P19525)","cell-free assay, competition with immobilised ligand",100
"OXSR1 (Homo sapiens, UniProt O95747)","cell-free assay, competition with immobilised ligand",100
"CAMK4 (Homo sapiens, UniProt Q16566)","cell-free assay, competition with immobilised ligand",100
"STK36 (Homo sapiens, UniProt Q9NRP7)","cell-free assay, competition with immobilised ligand",80
"MET (Homo sapiens, UniProt P08581, Y1235D)","cell-free assay, competition with immobilised ligand",78
"Tyrosine-protein kinase ABL1, phosphorylated (ABL1, Homo sapiens, UniProt P00519, T315I)","cell-free assay, competition with immobilised ligand",84
"BMPR1B (Homo sapiens, UniProt O00238)","cell-free assay, competition with immobilised ligand",77
"NEK3 (Homo sapiens, UniProt P51956)","cell-free assay, competition with immobilised ligand",96
"MELK (Homo sapiens, UniProt Q14680)","cell-free assay, competition with immobilised ligand",74
"EGFR (Homo sapiens, UniProt P00533, L858R/T790M)","cell-free assay, competition with immobilised ligand",100
"EPHA1 (Homo sapiens, UniProt P21709)","cell-free assay, competition with immobilised ligand",38
"FER (Homo sapiens, UniProt P16591)","cell-free assay, competition with immobilised ligand",83
"SIK1 (Homo sapiens, UniProt P57059)",competition binding,95
"CDK13 (Homo sapiens, UniProt Q14004)","cell-free assay, competition with immobilised ligand",67

# Set 2
# Target: CCNA1, cyclin fold, Cln2 fusion (human)
# Method: yeast growth competition, sequencing
# Matrix: yeast
# Setting: weak parent motif
# Relative to: not given
# Direction: higher = stronger binding
# Starting sequence: viral docking peptide; KGVKRKLFAEDSS
Variant,normalised enrichment score
V3S,0.155
K6D,-0.186
R5A L7A,0.222
R5A,0.16
K4G,0.177
E10N,0.754
A9N,0.868
D11C,0.847

# Set 3
# Target: HLA class I histocompatibility antigen, C alpha chain, allele C*04:01 (Homo sapiens, UniProt P10321)
# Observed: peptide-MHC binding
# Molecule type: peptide
# Concentration: concentration not given
Molecule,binding
YPRNGWPAL,inactive
HEVNGTWMI,inactive
YWLNTPFLV,inactive
CSDETTLYY,inactive
STMRRMALR,inactive
TYLQSLASL,inactive
YESSHWLVV,inactive
YMYDFILRF,inactive

# Single results of other studies
# Observed: enzyme activity
# Action: inhibitor
# Concentration: 0.5 µM
# Relative to: control
SMILES,target,remaining activity
CC(C)(C)c1cc(C=C(C#N)C#N)cc(Br)c1O,"PAK2 (Homo sapiens, UniProt Q13177)",96.5%
O=C1NC(=O)c2c1c1c3ccccc3n3c1c1c2c2ccccc2n1[C@H]1CC[C@@H]3O1,"FGFR4 (Homo sapiens, UniProt P22455)",70.4%

# Some of these lines once more (set 2):
Variant,normalised enrichment score
K6D,-0.186
R5A L7A,0.222
R5A,0.16
K4G,0.177
E10N,0.754
